Measurements of several laboratories.
Compare with care: the assays were run in different laboratories. ± marks the error that the study gave.

| SMILES | assay | system | conditions | scale | endpoint | value |
| --- | --- | --- | --- | --- | --- | --- |
| CC12CC(c3ccc(S(C)(=O)=O)cc3)C3=C4CCC(=O)C=C4CCC3C1CCC2(O)C(F)(F)C(F)(F)F (stereo not shown) | item: total radioactivity | human, feces | oral, 5 mg, 21 days |  | dose recovered in feces | 73.5 ± 3.7% |
| CC(C)CCN(c1nc(C#N)nc(NC2COC2)n1)C(C)c1ccc(F)cc1 (stereo not shown) |  | female CD-1 mice | intraperitoneal, 10 mg/kg, 0.5 h |  | brain concentration | 671 ng/g |
| CCC(=O)N[C@@H](C)C(=O)OCC(=O)N[C@@H](C)C(=O)O |  | water | pH 3, 65 °C |  | depolymerization half-life | 90.6 h |
| CC(C)(F)CC(NC(c1ccc(-c2ccc(S(C)(=O)=O)cc2)cc1)C(F)(F)F)C(=O)NCC#CBr (stereo not shown) | LC-MS UV trace | aqueous buffer | concentration not given, 23 h, pH 5.5, 37 °C, together with: cysteine 10 mM |  | cysteine adduct formation | < 1% |
| C[C@]12C[C@H](c3ccc(S(C)(=N)=O)cc3)C3=C4CCC(=O)C=C4CC[C@H]3[C@@H]1CC[C@@]2(O)C(F)(F)C(F)(F)F (stereo partly shown) |  | rat liver microsomes | 100 % absorption assumed |  | maximal oral bioavailability | 69% |
| Cn1cc(-c2cc(N3CCCCS3(=O)=O)ccc2N[C@H]2CC[C@H](C)CC2)c2cc[nH]c2c1=O (stereo in doubt) |  | Sprague-Dawley rat, plasma | intravenous, 1 mg/kg |  | Vss | 4.21 L/kg |
| O=C(CCc1ccc(CNC(C(=O)OC2CCCC2)C2CCCCC2)cn1)NO (stereo not shown) |  | human | 20 mg, single dose, geometric mean |  | CL/F | 499 L/h |
| O=[11C](OC(C(F)(F)F)C(F)(F)F)N1CCC(CNS(=O)(=O)c2ccc(Cl)cc2)CC1 | PET | Sprague-Dawley rat, brain | intravenous, dose not given, after 10 min, scan 60 min |  | plateau brain radioactivity | 1.5 SUV |
| NCCCC(=O)OCC(=O)c1ccc(O)c(C(F)(F)F)c1 |  | water | together with: potassium sorbate quencher |  | Stern-Volmer constant | 33 M⁻¹ |
| COCC1CN(C2CCN(c3cc(OC)c(Nc4ncc(Br)c(Nc5ccc6c(c5P(C)(C)=O)OCCO6)n4)cc3C)CC2)C1 |  | human | oral, dose not given, sample A patients |  | patients with treatment-related adverse events | 81.5% |
| Cc1ccc(OCC(=O)N(Cc2cccs2)c2ccn[nH]2)cc1 |  | beagle dog, male, plasma | oral gavage, 10 mg/kg |  | half-life | 1.92 h |
| NC12CNCCNCC(NCc3ccc(CNC(=O)CCCC(=O)NCc4ccc(-c5nncnn5)cc4)cc3)(CNCCNC1)CNCCNC2.[64Cu+2] | OLINDA dosimetry | breasts | pretargeting, 48-h interval |  | mean absorbed dose | 0.0303 rad/mCi |
| COc1cc2c(cc1OC)CN(CCCCn1ccc3cc(OCC[18F])ccc31)C2 |  | ICR mice, male, lung | intravenous, 15 min |  | uptake | 14.1 ± 3.06 %ID/g |
| CNC(=O)N[C@]1(C)CCC[C@@]2(C)C3CC[C@@]4(C)C[C@]3(CCC21)CC4=O (single isomer, unassigned) |  | rat plasma | 1.5 ng/mL, freeze-thaw stability, three cycles | reference: nominal concentration | relative error | -2% |
| CN1CCC[C@]1(C)/C=C/S(=O)(=O)NC(=O)Nc1c2c(cc3c1CCC3)CCC2 |  | human, plasma | oral, 400 mg, single dose, healthy volunteers |  | AUC(0-t) | 341 µg·h/mL |
| [11CH3]c1ccc2nc(C3CCC3)n(-c3ccc4[nH]ncc4c3)c2n1 |  | human female, muscle |  |  | absorbed radiation dose | 2.4 µSv/MBq |
| OCc1cn(Cc2ccc(-c3noc(-c4ccc(OCC[18F])c(C(F)(F)F)c4)n3)cc2)nn1 |  | Lewis rat, female, blood | intravenous, 0.08333 h |  | tissue uptake | 0.49 ± 0.07 %ID/g |
| CC(C)[C@H](NC(=O)[C@@H]1CCCN1C(=O)[C@H](CCCNC(=N)N)NC(=O)[C@H](CS)NC(=O)[C@H](Cc1c[nH]c2ccccc12)NC(=O)[C@H](CCCNC(=N)N)NC(=O)[C@@H](Cc1ccccc1)NC(=O)[C@H](Cc1c[nH]cn1)NC(=O)[C@H](CCC(=O)O)NC(=O)[C@H](CS)NC(=O)[C@H](CS)NC(=O)CNC(=O)[C@@H]1CC(=O)N[C@@H](CCCNC(=N)N)C(=O)NCC(=O)N[C@@H](CC(=O)O)C(=O)N[C@H](Cc2ccc(O)cc2)C(=O)N1)C(N)=O [technetium-99m labelled] |  | C57 mice B16/F1 melanoma female, urine | iv, 0.037 MBq, 24 h |  | excretion | 92.7 ± 1.99% |
| CCCCC/C=C/C=C/C(=O)NCC(C)C |  | rat plasma | 4000 ng/mL, 30 d, -80 °C, long-term storage high QC | reference: nominal concentration | relative error | 7.5% |
| NCCCC[C@H](NC(=O)[C@@H]1CCCN1C(=O)[C@@H]1CSSC[C@H](N)C(=O)N[C@@H](Cc2ccc(O)cc2)C(=O)N[C@@H](Cc2ccccc2)C(=O)N[C@@H](CCC(N)=O)C(=O)N[C@@H](CC(N)=O)C(=O)N1)C(=O)NCC(N)=O |  | Sprague Dawley rats | sc, 0.2 mg/kg terlipressin, metabolite |  | duration detectable in blood | 2 h |

| SMILES | assay | system | conditions | scale | endpoint | value |
| --- | --- | --- | --- | --- | --- | --- |
| CC(=O)N[C@H](C)c1cc(Cl)ccc1Cn1c(=S)[nH]c(=O)c2[nH]ccc21 |  | Sprague-Dawley rat, both sexes, plasma | oral, 125 mg/kg/day | reference: rat over human clinical doses | exposure ratio | ≥ 1 |
| CCCC[C@H](NC(=O)CNC(=O)CNC(=O)CN1CCN(CC(=O)O)CCN(CC(=O)O)CC1)C(=O)N[C@H]1CC(=O)NCCCC[C@@H](C(N)=O)NC(=O)[C@H](Cc2c[nH]c3ccccc23)NC(=O)[C@H](CCCNC(=N)N)NC(=O)[C@@H](Cc2ccccc2)NC(=O)[C@H](Cc2c[nH]cn2)NC1=O [copper-64 labelled] |  | female C57 mouse, B16/F1 melanoma | intravenous, 0.037 MBq, 24 h | reference: tumour over stomach | uptake ratio | 19.3 |
| CC[C@H](C)[C@H](NC(=O)[C@H](N)Cc1ccc(O)cc1)C(=O)N[C@H]1CSSC[C@@H](C(=O)N(C)[C@H](C(N)=O)[C@@H](C)CC)NC(=O)[C@H](CCCNC(=N)N)NC(=O)[C@H](Cc2c[nH]cn2)NC(=O)[C@H](C)NC(=O)CN(C)C(=O)[C@H](Cc2c[nH]c3ccccc23)NC(=O)[C@H](CC(=O)O)NC(=O)[C@H](CCC(N)=O)NC(=O)[C@H](Cc2cn(C)c3ccccc23)NC(=O)[C@H](C(C)C)NC1=O | UPLC-ESI-MS | cynomolgus monkey plasma | 0.18 µg/mL, 24 h, 4 °C, autosampler after SPE |  | recovery | 99.9 ± 0.4% |
| N[C@@H](COc1ccccc1C(F)(F)F)c1ccccc1 |  | rat, plasma | intravenous, 5 mg/kg |  | AUC | 0.28 µg·h/mL |
| C[C@]12C[C@H](c3ccc(-c4ccc(C(=O)O)cc4)cc3)C3=C4CCC(=O)C=C4CC[C@H]3[C@@H]1CC[C@@]2(O)C(F)(F)C(F)(F)F |  | human liver microsomes | 100 % absorption assumed |  | maximal oral bioavailability | 97% |
| Oc1ccc2ccccc2c1/N=N/c1ccc(/N=N/c2ccccc2)cc1 |  | rat whole blood QC samples | 5.0 µg/L, 12 h, room temperature, short-term stability |  | measured concentration | 5.22 µg/L |
| COc1ccc([C@@H]2CC(=O)c3c(O)cc(O[C@@H]4O[C@H](CO[C@@H]5O[C@@H](C)[C@H](O)[C@@H](O)[C@H]5O)[C@@H](O)[C@H](O)[C@H]4O)cc3O2)cc1O |  | rat plasma | 31.25 ng/mL, -80 °C, long-term storage | reference: nominal concentration | relative error | -3.97% |
| C[n+]1c(/C=C/c2ccc(N(c3ccccc3)c3ccccc3)cc2)cc(/C=C2\Sc3ccccc3N2CCCN2CCCC2)c2ccccc21 |  | Sprague-Dawley rat, female, plasma | intravenous, 1.5 mg/kg, 2 h |  | compound remaining in plasma | ~56% |
| NCCC(=O)N1Cc2ccccc2-c2c(nnn2-c2nc(N)c3ncn(C4OC(CO)C(O)C4O)c3n2)-c2ccccc21 (mixture of isomers) | frequency-domain fluorometry | methanol |  |  | average fluorescence lifetime | 2.8 ns |
| COc1cc(/C=C/C(=O)N2CCc3ccccc3C2)ccc1O[11CH3] | PET-CT imaging | C57BL/6 mouse, male, kidney | intravenous, dynamic scan over 60 min |  | maximum uptake | 18.7 ± 0.13 %ID/cc |
| COC(=O)c1ccc(-c2cn(Cc3cc(Cl)ccc3O[11CH3])nn2)cc1 | PET, 2TCM | rhesus macaque, thalamus | dose not given |  | distribution volume VT | 0.594 mL/cm³ |
| CCCC[C@@H]1NC(=O)[C@@H](NC(=O)[C@H](CCC(=O)O)NC(=O)CNC(=O)CN2CCN(CC(=O)O)CCN(CC(=O)O)CCN(CC(=O)O)CC2)CCCCNC(=O)C[C@@H](C(N)=O)NC(=O)[C@H](C(C)C)NC(=O)[C@@H]2CCCN2C(=O)[C@H](CCCNC(=N)N)NC(=O)CNC(=O)[C@H](Cc2c[nH]c3ccccc23)NC(=O)[C@H](CCCNC(=N)N)NC(=O)[C@@H](Cc2ccccc2)NC(=O)[C@H](Cc2c[nH]cn2)NC(=O)[C@H](CCC(=O)O)NC1=O [gallium-67 labelled] |  | C57 mice, B16/F10 lung metastases | intravenous, 0.037 MBq, 2 h |  | lung uptake | 1.44 ± 0.75 %ID/g |
| CC(C)(O)c1ncc([S@](N)(=O)=NC(=O)Nc2c3c(cc4c2CCC4)CCC3)s1 |  | human, plasma | oral, 100 mg, single dose, fed, healthy volunteers |  | AUC(0-t) | 112 µg·h/mL |
| Cc1c(C(=O)Nc2ccn(C)n2)ncn1Cc1cccc(C(F)(F)F)c1 |  | C57BL/6 mice, non-transgenic, plasma | oral, drinking water, 15 mg/kg daily, 10 days |  | concentration at time point | 23.6 ± 7.2 ng/mL |
| CCOc1ccc2c(c1)C(C)=CC(C)(C)N2c1cc(OCC)cc2c1NC(C)(C)C=C2C | LC-MS/MS | laying hens, liver | oral in feed, 50 mg/kg feed ethoxyquin, 56 days, after glucuronidase treatment |  | tissue residue | 3 ± 1.6 ng/g |
| C[C@H]1Nc2nc(=O)c3[nH]ccc3n2Cc2ccc(Cl)cc21 |  | Sprague-Dawley rat, female, plasma | oral, 125 mg/kg/day | reference: rat over human 15 mg | exposure ratio | 33 |
| CCCC[C@H](NC(=O)[C@H](CC(C)C)N(C)C(=O)CNC(=O)[C@@H](NC(=O)[C@H](Cc1ccccc1)NC(=O)[C@H](CCCCN)NC(=O)[C@@H](N)CC(=O)O)C(C)C)C(N)=O | potentiometric titration |  | third pKa |  | pKa | 4.73 ± 0.15 |
| COc1ccc2cc(-c3ccc(-c4ccc(C)cn4)nc3)oc2c1 |  | acetonitrile | zinc(II) complex |  | fluorescence lifetime | 3.33 ns |
| Cn1c(=O)oc2ccc(-c3ccc(CC(C#N)NC(=O)C4CNCCCO4)c(F)c3)cc21 (stereo not shown) | item: macule | human | 80 mg single dose, fasted |  | subjects with TRAE | 16.7% |
| CC12CC3CC(C)(C1)CC(NC(=O)Nc1ccc(C(=O)N4CCC[C@H](C(N)=O)C4)cc1F)(C3)C2 |  | Sprague Dawley rats, both sexes, plasma | oral, 50 mg/kg |  | Vz | 79.1 L |
